Experimental data gathered from unrelated publications.
Each numbered part is a random draw from the data of one study; scales do not carry over between parts.
UniProt Q8NG66, sequence (whole entry, looked up): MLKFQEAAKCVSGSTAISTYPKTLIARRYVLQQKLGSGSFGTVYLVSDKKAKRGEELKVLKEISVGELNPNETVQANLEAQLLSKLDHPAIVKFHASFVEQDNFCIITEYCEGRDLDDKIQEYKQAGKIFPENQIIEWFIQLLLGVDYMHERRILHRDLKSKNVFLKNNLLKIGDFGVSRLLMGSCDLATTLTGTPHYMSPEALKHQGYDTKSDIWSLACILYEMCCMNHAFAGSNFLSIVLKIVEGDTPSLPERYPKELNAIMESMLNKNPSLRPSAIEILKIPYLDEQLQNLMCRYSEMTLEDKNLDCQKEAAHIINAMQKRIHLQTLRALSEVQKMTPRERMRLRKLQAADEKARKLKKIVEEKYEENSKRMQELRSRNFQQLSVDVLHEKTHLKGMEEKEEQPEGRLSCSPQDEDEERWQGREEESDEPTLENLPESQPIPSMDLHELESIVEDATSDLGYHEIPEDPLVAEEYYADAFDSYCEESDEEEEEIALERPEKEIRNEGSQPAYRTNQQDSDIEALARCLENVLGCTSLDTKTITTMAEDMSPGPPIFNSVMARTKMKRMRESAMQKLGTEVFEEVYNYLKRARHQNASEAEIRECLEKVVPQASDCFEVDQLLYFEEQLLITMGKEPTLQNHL
UniProt P52333, sequence (whole entry, looked up): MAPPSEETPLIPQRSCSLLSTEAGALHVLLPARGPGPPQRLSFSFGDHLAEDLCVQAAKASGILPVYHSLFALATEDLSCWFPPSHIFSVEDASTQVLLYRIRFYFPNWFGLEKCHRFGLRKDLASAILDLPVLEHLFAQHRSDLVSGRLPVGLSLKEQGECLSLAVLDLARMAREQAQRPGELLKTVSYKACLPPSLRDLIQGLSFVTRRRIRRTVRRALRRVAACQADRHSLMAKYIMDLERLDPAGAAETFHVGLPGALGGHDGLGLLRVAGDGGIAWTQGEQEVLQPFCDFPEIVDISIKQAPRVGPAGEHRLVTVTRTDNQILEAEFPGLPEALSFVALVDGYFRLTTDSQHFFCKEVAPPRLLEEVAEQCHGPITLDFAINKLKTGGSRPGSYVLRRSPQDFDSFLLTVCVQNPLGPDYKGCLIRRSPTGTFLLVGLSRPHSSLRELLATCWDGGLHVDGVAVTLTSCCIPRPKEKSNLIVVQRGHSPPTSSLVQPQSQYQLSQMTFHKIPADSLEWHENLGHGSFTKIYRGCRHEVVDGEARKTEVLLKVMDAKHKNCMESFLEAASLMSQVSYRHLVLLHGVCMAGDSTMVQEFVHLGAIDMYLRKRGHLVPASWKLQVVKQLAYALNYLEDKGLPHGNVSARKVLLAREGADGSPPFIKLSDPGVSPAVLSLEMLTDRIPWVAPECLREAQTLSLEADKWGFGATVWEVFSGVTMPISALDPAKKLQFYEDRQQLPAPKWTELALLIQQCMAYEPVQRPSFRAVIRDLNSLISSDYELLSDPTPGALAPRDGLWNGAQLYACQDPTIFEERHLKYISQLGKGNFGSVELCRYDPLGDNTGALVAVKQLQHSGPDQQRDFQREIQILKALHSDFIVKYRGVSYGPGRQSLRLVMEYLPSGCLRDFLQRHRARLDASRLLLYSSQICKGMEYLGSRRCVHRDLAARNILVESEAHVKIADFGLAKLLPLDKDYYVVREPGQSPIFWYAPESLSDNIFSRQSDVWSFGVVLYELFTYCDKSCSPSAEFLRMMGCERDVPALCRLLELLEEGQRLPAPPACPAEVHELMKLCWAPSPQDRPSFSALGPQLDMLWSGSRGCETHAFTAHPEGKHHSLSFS
UniProt P18089, sequence (whole entry, looked up): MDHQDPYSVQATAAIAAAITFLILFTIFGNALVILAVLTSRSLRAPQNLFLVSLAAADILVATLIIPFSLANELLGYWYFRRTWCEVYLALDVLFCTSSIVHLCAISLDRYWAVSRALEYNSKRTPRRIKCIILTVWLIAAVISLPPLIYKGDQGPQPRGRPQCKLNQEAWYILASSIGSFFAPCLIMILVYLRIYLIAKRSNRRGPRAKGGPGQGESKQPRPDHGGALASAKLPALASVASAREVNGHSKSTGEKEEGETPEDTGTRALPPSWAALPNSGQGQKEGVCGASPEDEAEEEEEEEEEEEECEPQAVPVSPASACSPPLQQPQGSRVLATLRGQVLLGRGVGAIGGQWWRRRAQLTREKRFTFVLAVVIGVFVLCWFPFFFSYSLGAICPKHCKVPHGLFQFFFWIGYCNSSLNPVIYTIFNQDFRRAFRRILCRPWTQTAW
UniProt P42336, sequence (whole entry, looked up): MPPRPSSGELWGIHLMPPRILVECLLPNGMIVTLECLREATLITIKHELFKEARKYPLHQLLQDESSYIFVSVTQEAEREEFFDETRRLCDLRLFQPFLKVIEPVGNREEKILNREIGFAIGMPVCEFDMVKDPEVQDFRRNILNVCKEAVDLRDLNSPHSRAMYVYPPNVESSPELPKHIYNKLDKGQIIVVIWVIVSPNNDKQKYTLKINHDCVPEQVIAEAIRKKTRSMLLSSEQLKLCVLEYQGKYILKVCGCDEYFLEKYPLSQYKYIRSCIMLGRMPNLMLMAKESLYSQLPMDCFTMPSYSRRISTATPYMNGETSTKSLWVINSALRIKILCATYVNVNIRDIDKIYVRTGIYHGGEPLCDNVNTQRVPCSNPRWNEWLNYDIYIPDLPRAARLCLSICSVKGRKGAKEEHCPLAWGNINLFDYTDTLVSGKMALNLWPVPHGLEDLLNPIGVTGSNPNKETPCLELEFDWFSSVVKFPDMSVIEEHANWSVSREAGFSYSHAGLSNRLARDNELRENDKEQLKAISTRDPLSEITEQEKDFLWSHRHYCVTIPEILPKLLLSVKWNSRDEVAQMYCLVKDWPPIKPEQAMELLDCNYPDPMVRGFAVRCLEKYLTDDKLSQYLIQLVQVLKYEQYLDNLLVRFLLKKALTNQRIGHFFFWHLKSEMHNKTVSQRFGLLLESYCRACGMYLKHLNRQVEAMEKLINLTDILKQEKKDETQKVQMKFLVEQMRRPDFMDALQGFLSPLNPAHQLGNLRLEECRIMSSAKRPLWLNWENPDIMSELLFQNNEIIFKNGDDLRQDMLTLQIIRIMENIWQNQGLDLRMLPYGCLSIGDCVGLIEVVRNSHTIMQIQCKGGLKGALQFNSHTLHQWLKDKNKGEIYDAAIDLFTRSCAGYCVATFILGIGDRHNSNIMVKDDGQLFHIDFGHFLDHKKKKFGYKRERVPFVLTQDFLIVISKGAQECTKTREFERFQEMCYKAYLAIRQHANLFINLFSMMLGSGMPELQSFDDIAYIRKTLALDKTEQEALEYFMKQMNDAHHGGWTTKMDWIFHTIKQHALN
UniProt P13945, sequence (whole entry, looked up): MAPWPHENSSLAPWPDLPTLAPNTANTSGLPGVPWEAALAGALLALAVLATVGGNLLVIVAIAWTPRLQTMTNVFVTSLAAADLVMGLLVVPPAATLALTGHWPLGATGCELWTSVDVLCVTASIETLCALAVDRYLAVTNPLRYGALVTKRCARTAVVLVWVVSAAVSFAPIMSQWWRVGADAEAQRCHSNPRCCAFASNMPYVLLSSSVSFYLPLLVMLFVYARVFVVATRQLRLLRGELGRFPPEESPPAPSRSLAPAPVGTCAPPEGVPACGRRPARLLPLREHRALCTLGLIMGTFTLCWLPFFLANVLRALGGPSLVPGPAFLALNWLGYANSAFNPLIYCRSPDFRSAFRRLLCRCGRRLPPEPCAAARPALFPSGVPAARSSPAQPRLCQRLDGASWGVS
UniProt P08588, sequence (whole entry, looked up): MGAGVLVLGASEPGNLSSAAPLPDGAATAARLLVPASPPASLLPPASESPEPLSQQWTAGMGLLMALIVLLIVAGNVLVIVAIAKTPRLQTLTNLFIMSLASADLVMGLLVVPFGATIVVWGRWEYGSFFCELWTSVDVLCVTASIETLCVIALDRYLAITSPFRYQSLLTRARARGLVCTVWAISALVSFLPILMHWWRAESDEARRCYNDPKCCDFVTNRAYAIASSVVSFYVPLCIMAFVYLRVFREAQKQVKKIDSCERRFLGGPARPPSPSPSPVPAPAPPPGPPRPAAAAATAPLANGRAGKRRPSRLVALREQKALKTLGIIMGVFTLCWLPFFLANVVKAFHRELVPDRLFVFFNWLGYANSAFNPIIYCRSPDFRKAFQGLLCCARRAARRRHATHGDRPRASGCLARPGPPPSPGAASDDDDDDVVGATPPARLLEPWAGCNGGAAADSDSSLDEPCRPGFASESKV
UniProt Q9H3N8, sequence (whole entry, looked up): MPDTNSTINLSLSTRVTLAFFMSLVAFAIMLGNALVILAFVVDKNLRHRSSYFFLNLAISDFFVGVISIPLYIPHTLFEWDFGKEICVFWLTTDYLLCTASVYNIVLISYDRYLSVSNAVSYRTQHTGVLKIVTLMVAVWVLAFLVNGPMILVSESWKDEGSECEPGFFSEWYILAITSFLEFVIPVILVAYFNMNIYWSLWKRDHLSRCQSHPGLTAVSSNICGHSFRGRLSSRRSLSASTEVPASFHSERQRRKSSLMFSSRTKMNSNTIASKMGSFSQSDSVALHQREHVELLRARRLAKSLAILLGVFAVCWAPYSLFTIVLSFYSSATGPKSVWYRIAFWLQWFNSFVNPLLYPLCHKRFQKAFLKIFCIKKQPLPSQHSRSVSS

Block 1 — mode: inhibitor; concentration: 1 µM
Structure (SMILES): CC#CC(=O)N1CCC[C@H]1c1nc(-c2ccc(C(=O)Nc3ccccn3)cc2)c2c(N)nccn12
target | read-out | inhibition
Phosphatidylinositol 3-kinase catalytic subunit type 3 (PIK3C3, Homo sapiens, UniProt Q8NEB9) | enzyme activity | 25%
Mitogen-activated protein kinase kinase kinase 6 (MAP3K6, Homo sapiens, UniProt O95382) | enzyme activity | 0%
Tyrosine-protein kinase ABL1, non-phosphorylated (ABL1, Homo sapiens, UniProt P00519, Q252H) | enzyme activity | 31%
Ribosomal protein S6 kinase alpha-4, C-terminal kinase domain (RPS6KA4, Homo sapiens, UniProt O75676) |  | 16%
Dual specificity tyrosine-phosphorylation-regulated kinase 2 (DYRK2, Homo sapiens, UniProt Q92630) | enzyme activity | 12%
Dual specificity mitogen-activated protein kinase kinase 6 (MAP2K6, Homo sapiens, UniProt P52564) | enzyme activity | 0%
Calcium/calmodulin-dependent protein kinase type IV (CAMK4, Homo sapiens, UniProt Q16566) | enzyme activity | 0%
Mitogen-activated protein kinase 4 (MAPK4, Homo sapiens, UniProt P31152) | enzyme activity | 0%
Tyrosine-protein kinase JAK3 (JAK3, Homo sapiens, UniProt P52333) |  | 1%
Serine/threonine-protein kinase SIK1 (SIK1, Homo sapiens, UniProt P57059) | enzyme activity | 4%
Epidermal growth factor receptor (EGFR, Homo sapiens, UniProt P00533, G719S) | enzyme activity | 1%
Tyrosine-protein kinase JAK1, JH2 pseudokinase domain (JAK1, Homo sapiens, UniProt P23458) |  | 21%
Phosphatidylinositol 4,5-bisphosphate 3-kinase catalytic subunit alpha isoform (PIK3CA, Homo sapiens, UniProt P42336) | enzyme activity | 2%
Serine/threonine-protein kinase Nek11 (NEK11, Homo sapiens, UniProt Q8NG66) | enzyme activity | 0%

Block 2 — read-out: enzyme activity; mode: inhibitor; concentration: 10 µM
Target: Calcium/calmodulin-dependent protein kinase type II subunit alpha (CAMK2A, Homo sapiens, UniProt Q9UQM7)
UniProt Q9UQM7, sequence (whole entry, looked up): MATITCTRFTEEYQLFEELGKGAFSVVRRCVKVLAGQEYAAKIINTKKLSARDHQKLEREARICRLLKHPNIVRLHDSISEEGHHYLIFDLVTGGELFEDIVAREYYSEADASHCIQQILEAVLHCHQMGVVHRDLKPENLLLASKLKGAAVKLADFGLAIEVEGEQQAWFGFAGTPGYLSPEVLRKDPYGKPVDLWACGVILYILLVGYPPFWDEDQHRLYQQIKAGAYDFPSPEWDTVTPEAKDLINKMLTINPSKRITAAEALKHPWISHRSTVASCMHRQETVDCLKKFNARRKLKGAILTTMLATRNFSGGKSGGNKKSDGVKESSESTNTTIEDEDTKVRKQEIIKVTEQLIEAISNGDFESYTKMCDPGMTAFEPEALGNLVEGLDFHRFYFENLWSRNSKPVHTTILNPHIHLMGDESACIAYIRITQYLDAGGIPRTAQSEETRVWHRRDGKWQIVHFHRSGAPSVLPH
SMILES | inhibition [%]
O=C(Nc1ncc([N+](=O)[O-])s1)c1ccccc1O | -1
O=C1NC(=O)C(c2ccccc2)(c2ccccc2)N1 | -4
O=c1cc(-c2ccc(O)cc2)oc2c([C@@H]3O[C@H](CO)[C@@H](O[C@@H]4O[C@H](CO)[C@@H](O)[C@H](O)[C@H]4O)[C@H](O)[C@H]3O)c(O)cc(O)c12 | 7
C[C@@H]1CC[C@@]2(NC1)O[C@H]1C[C@H]3[C@@H]4CC=C5C[C@@H](O[C@@H]6O[C@H](CO)[C@H](O)[C@H](O[C@@H]7O[C@H](CO)[C@@H](O)[C@H](O)[C@H]7O)[C@H]6O[C@@H]6O[C@@H](C)[C@H](O)[C@@H](O)[C@H]6O)CC[C@]5(C)[C@H]4CC[C@]3(C)[C@H]1[C@@H]2C | -12
CC(=O)OCC(=O)[C@@]1(OC(C)=O)[C@@H](C)C[C@H]2[C@@H]3C[C@H](F)C4=CC(=O)C=C[C@]4(C)[C@@]3(F)[C@@H](O)C[C@@]21C | 7
COC(=O)C1=C(C)NC(C)=C(C(=O)OC(C)C)C1c1cccc2nonc12 (stereo not drawn) | -2
C[C@H](C(=O)O)c1cccc(C(=O)c2ccccc2)c1 | 0
CCCCCOC(=O)Nc1nc(=O)n([C@@H]2O[C@H](C)[C@@H](O)[C@H]2O)cc1F | 2

Block 3 — cell line: HaCaT; concentration: 100 µM; time: 36 h
Compound | viability [%]
CC(=O)SCC(Cc1ccccc1)C(=O)NCC(=O)OCc1ccccc1 (stereo not drawn) | 107
CC(C)(C)NCC(O)c1cc(O)cc(O)c1 (stereo not drawn) | 75.2
O=C1CCCC(=O)C1C(=O)c1ccc(C(F)(F)F)cc1[N+](=O)[O-] | 98.1
CNCC[C@@H](Oc1ccccc1C)c1ccccc1 | 5.43
O=c1c(-c2ccc(O[C@@H]3O[C@H](CO)[C@@H](O)[C@H](O)[C@H]3O)cc2)coc2cc(O)cc(O)c12 | 8.77
OC1(c2ccc(Cl)c(C(F)(F)F)c2)CCN(CCCC(c2ccc(F)cc2)c2ccc(F)cc2)CC1 | 5.75
Cc1cc(C2CCCCC2)n(O)c(=O)c1 | 8.05
C#C[C@]1(O)CC[C@H]2[C@@H]3CCC4=CC(=O)CC[C@@H]4[C@H]3C(=C)C[C@@]21CC | 84.3
NC[C@H]1O[C@H](O[C@H]2[C@H](O[C@@H]3O[C@H](CO)[C@@H](O)[C@H]3O)[C@@H](O)[C@H](N)C[C@@H]2N)[C@H](N)[C@@H](O)[C@@H]1O | 96.6

Block 4 — read-out: cell-free assay; concentration: 10 µM
SMILES: CC(=O)Nc1c(C(C)=O)c(=O)n(C)c2nc(-c3ccc(Cl)cc3Cl)c(-c3ccc(Cl)cc3)cc12
target | inhibition
Alpha-1D adrenergic receptor (ADRA1D, Homo sapiens, UniProt P25100) | -3.09%
Alpha-2B adrenergic receptor (ADRA2B, Homo sapiens, UniProt P18089) | 16.6%
Histamine H2 receptor (HRH2, Homo sapiens, UniProt P25021) | 6.71%
D(3) dopamine receptor (DRD3, Homo sapiens, UniProt P35462) | 14.3%
Beta-2 adrenergic receptor (ADRB2, Homo sapiens, UniProt P07550) | 12.6%
Beta-1 adrenergic receptor (ADRB1, Homo sapiens, UniProt P08588) | -10.5%
D(4) dopamine receptor (DRD4, Homo sapiens, UniProt P21917) | 22.7%
Alpha-1B adrenergic receptor (ADRA1B, Homo sapiens, UniProt P35368) | 17.1%
5-hydroxytryptamine receptor 6 (HTR6, Homo sapiens, UniProt P50406) | -3.97%
Muscarinic acetylcholine receptor M2 (CHRM2, Homo sapiens, UniProt P08172) | -7.96%
5-hydroxytryptamine receptor 2B (HTR2B, Homo sapiens, UniProt P41595) | 1.6%
Muscarinic acetylcholine receptor M5 (CHRM5, Homo sapiens, UniProt P08912) | -4.54%
Sigma intracellular receptor 2 (TMEM97, Homo sapiens, UniProt Q5BJF2) | 54.6%
Histamine H3 receptor (HRH3, Homo sapiens, UniProt Q9Y5N1) | -2.68%
Histamine H4 receptor (HRH4, Homo sapiens, UniProt Q9H3N8) | 13.9%
Alpha-2C adrenergic receptor (ADRA2C, Homo sapiens, UniProt P18825) | 3.44%
Muscarinic acetylcholine receptor M4 (CHRM4, Homo sapiens, UniProt P08173) | 0.711%
5-hydroxytryptamine receptor 7 (HTR7, Homo sapiens, UniProt P34969) | 8.91%
Alpha-2A adrenergic receptor (ADRA2A, Homo sapiens, UniProt P08913) | 1.31%
Beta-3 adrenergic receptor (ADRB3, Homo sapiens, UniProt P13945) | 37.6%

For quick reference, copied from above (block 4):
target | inhibition
Alpha-1B adrenergic receptor (ADRA1B, Homo sapiens, UniProt P35368) | 17.1%
5-hydroxytryptamine receptor 6 (HTR6, Homo sapiens, UniProt P50406) | -3.97%
Muscarinic acetylcholine receptor M2 (CHRM2, Homo sapiens, UniProt P08172) | -7.96%
5-hydroxytryptamine receptor 2B (HTR2B, Homo sapiens, UniProt P41595) | 1.6%
Muscarinic acetylcholine receptor M5 (CHRM5, Homo sapiens, UniProt P08912) | -4.54%
Sigma intracellular receptor 2 (TMEM97, Homo sapiens, UniProt Q5BJF2) | 54.6%
